Assay results collected from several papers.
Protocols differ between the studies behind these lines. Values joined by “and” are separate records of one study, mostly repeats; a detail may differ. ± gives the spread as reported.

SMILES	assay	system	conditions	plasma concentration
[2H]C([2H])([2H])C1(C([2H])([2H])[2H])NC(=O)N(c2ccc(F)c(C(F)(F)F)c2)C1=O	–	male Swiss outbred mice, plasma	oral, 100 mg/kg, 24 h	38400 ± 3010 ng/mL
Cc1ccc(F)c2cc(C(=O)N[C@@H]3CCC[C@H](N4CC[C@H](N(C)S(C)(=O)=O)C4)C3)[nH]c12	–	CD1 mouse, plasma	intravenous, 1 mg/kg, 0.05 h	274 ng/mL
C=C(C)[C@@H]1CCC(C)=C[C@H]1c1c(O)cc(CCC)cc1O	LC-MS/MS	Scn1a+/− mice, both sexes, plasma	intraperitoneal, 10 mg/kg, after hyperthermia protocol	562 ± 70 ng/mL
C1=Cc2nc1cc1ccc([n-]1)c(C1CC1)c1nc(cc3ccc([n-]3)c2C2CC2)C=C1.CC(=O)[O-].[Mn+3]	LC-MS/MS	Sprague-Dawley rat, plasma	oral gavage, dose not given, 240 min	264 ng/mL and 622 ng/mL
CCCCCc1cc(O)c(C/C=C(\C)CCC=C(C)C)c(O)c1	LC-MS/MS	Scn1a+/− mice, both sexes, plasma	intraperitoneal, 0.3 mg/kg, after hyperthermia protocol	2 ng/mL
Clc1nc[n]([Au][PH](c2ccccc2)(c2ccccc2)c2ccccc2)c1Cl	–	NCG mouse	intraperitoneal, 10 mg/kg, 24 h	14300 ng/mL
CCCCCc1cc(O)c(C/C=C(\C)CCC=C(C)C)c(O)c1C(=O)O	LC-MS/MS	Scn1a+/− mice, both sexes, plasma	intraperitoneal, 100 mg/kg, after hyperthermia protocol	73000 ± 10000 ng/mL
CCN(CC)CCCC[C@H](NC(=O)[C@H](CC(C)C)NC(=O)[C@H](C)NC(=O)[C@H](Cc1ccccc1)NC(=O)c1ccc(C(C)(C)C)cc1)C(=O)N[C@@H](CO)C(=O)OC	–	male Swiss Albino mice, plasma	intraperitoneal, 10 mg/kg, 0.25 h	298 ng/mL
Cc1ccccc1C(=O)NN=Cc1ccc(O)c(Br)c1	–	C3H/HeN mouse IN model, plasma	intravenous, 0.8 mg/kg, 30 min	59.5 ng/mL
C1=Cc2nc1cc1ccc([n-]1)c(-c1ccccc1)c1nc(cc3ccc([n-]3)c2-c2ccccc2)C=C1.CC(=O)[O-].[Mn+3]	LC-MS/MS	Sprague-Dawley rat, plasma	oral gavage, dose not given, 120 min, individual rat Rat1	35 ng/mL
CCCc1cc(O)c(C/C=C(\C)CCC=C(C)C)c(O)c1C(=O)O	LC-MS/MS	Scn1a+/− mice, plasma	intraperitoneal, 100 mg/kg, after hyperthermia protocol	400000 ± 23000 ng/mL
Cc1ccc(S(=O)(=O)n2c(N)nc3ccccc32)cc1	–	mouse, plasma	intraperitoneal, 15 mg/kg, 120 min	120 ± 50 nM

Excerpt of the above:
SMILES	assay	system	conditions	plasma concentration
CCN(CC)CCCC[C@H](NC(=O)[C@H](CC(C)C)NC(=O)[C@H](C)NC(=O)[C@H](Cc1ccccc1)NC(=O)c1ccc(C(C)(C)C)cc1)C(=O)N[C@@H](CO)C(=O)OC	–	male Swiss Albino mice, plasma	intraperitoneal, 10 mg/kg, 0.25 h	298 ng/mL
